Measured values collected from several papers.
Lines come from different studies, so protocols differ. Several values in a cell are separate wells, animals, samples, runs or records. ± marks the error that the study gave.

| Compound | cell line | assay | conditions | IC50 |
| --- | --- | --- | --- | --- |
| C=CC(=O)Nc1cc(Nc2nccc(-c3cn(C)c4ccccc34)n2)c(OC)cc1N(C)CCN(C)C | Ba/F3 EGFR S768I | cell proliferation, CellTiter-Glo | 72 h | 48.1 ± 1.85 nM |
| CCCCN1C[C@H](O)[C@@H](O)[C@@H](O)[C@H]1CO | sample G patient fibroblasts | Gb3 level lowering, LC-MS/MS, item: Gb3 d18:1/18:0 | 216 h | 9000 nM |
| O=C(Nc1ccc(CN2CCOCC2)c(C(F)(F)F)c1)c1ccc(C#Cc2cccc3cnccc23)cn1 | SUM149PT | cell viability, MTT | 72 h | > 180000 nM |
| NCCOCCCN1CCN(c2ccc(-c3cncc(Cl)c3N3CCC4(CCNC4=O)CC3)cc2)CC1 | LS174T | WNT reporter gene, inhibitor, TCF/LEF luciferase | – | 103 nM |
| COc1cccc(Cn2nc(-c3ccc(CN)o3)c3ccccc32)c1 | RBE | cell viability, CellTiter-Glo | – | 5010 nM |
| COc1cc2c3c(n(CCCN4CCOCC4)c(=O)c2cc1OC)-c1nc2c(cc1C3=O)OCO2 | CCRF-CEM leukaemia cells | cytotoxicity, MTS | 72 h | 248 ± 96 nM |
| CC(C)c1ccc(C2C(C#N)=C3N=C(N)c4ccccc4N3C3=C2C(=O)CCC3)cc1 (stereo not drawn) | BV-2 | nuclear intensity, high-content imaging | geometric mean | > 60000 nM |
| CCOc1cc2ncc(C#N)c(Nc3ccc(OCc4ccccn4)c(Cl)c3)c2cc1NC(=O)/C=C/CN(C)C | Ba/F3 expressing HER2 S335C | cell growth, inhibitor, CellTiter-Glo | – | 0.7 nM |
| COc1ccccc1OCC(O)CN1CCN(CC(=O)Nc2c(C)cccc2C)CC1 (stereo not drawn) | hiPSC-derived cardiomyocytes | beat period change, field potential recording | 30 min, coupled electrode condition | 53100 nM |
| O=C1[C@H](Cc2ccc(O)cc2)N2C(=O)CCN(C(=O)NCc3ccccc3)[C@H]2CN1Cc1cccc2ccccc12 | HCT-116 LEF/TCF-bla, CTNNB1 Ser45 deletion | LEF/TCF reporter gene, inhibitor | 5 h | 1060 nM |
| OCc1ccc(-c2nn(Cc3ccncc3)c3ccccc23)o1 | RBE | cell viability, CellTiter-Glo | – | 160 nM and 170 nM |
| C=CC(=O)N1C[C@@H](n2nc(C#Cc3c(F)cc4c(ncn4C4CC4)c3F)c(C(N)=O)c2NC)C[C@@H]1COC | CC-LP-1 engineered to express FGFR2-PHGDH fusion | cell viability, MTT | 3 days | 2.82 nM |
| N#Cc1ccc2c(CN3CCOCC3)cc(-c3ccc([C@H]4CCC(=O)N4)cc3)nc2c1 | mouse aortic smooth muscle cells | cell migration, scratch wound | with: CML-HSA 10 µg/mL | 2 ± 1 nM |
| O=C(C[C@@H](C(F)F)n1ccc(F)n1)N1CCC(O)(Cn2cnc3c(cnn3-c3ccc(F)cc3)c2=O)CC1 | CAPAN-1 | cell viability, SRB | 5 days, mean of replicates | 53.2 nM |
| COc1cc2c3c(n(CCCNC(C)C)c(=O)c2cc1OC)-c1nc2c(cc1C3=O)OCO2 | CCRF-CEM leukaemia cells | cytotoxicity, MTS | 72 h | 57 ± 28 nM |
| Nc1ccn([C@@H]2O[C@H](CO)[C@@H](O)C2(F)F)c(=O)n1 | CAPAN-1 | cell viability, MTT | mutant KRAS liver metastasis | > 10000 nM |
| COc1ccc(F)cc1C(=O)NCc1ccc(-c2nn([C@@H](C)C(F)(F)F)c(N)c2C(N)=O)cc1 | Rec1 | item: IL-4 | 24 h | > 100 nM |
| C=CC(=O)Nc1cc(Nc2nccc(-c3cn(C)c4ccccc34)n2)c(OC)cc1N(C)CCN(C)C | Ba/F3 EGFR 19Del/C797S | cell growth | 72 h | 869 nM |
| C[C@H](Nc1ccc2c(c1)OCCn1cc(N3C(=O)OC[C@H]3C(F)F)nc1-2)C(N)=O | MFE-280 | growth rate inhibition, CellTiter-Glo | 120 h | 16.7 nM |
| COc1cc2c3c(n(CCCn4ccnc4)c(=O)c2cc1OC)-c1nc2c(cc1C3=O)OCO2 | CCRF-CEM leukaemia cells | cytotoxicity, MTS | 72 h | 117 ± 61 nM |

| Compound | cell line | assay | conditions | IC50 |
| --- | --- | --- | --- | --- |
| COc1cc(N2CCC(N3CCN(C)CC3)CC2)ccc1Nc1ncc(Cl)c(Nc2ccccc2S(=O)(=O)C(C)C)n1 | NCI-H2228 (EML4-ALK) | cell growth | 3 days | 220 ± 70 nM |
| OCc1ccc(-c2nn(Cc3ccccn3)c3ccccc23)o1 | RBE | cell viability, CellTiter-Glo | – | 290 nM |
| CCc1cc2ncc(CN3CCN(c4ccc(C(=O)NC)nc4)CC3)cc2[nH]c1=O | SK-OV-3 BRCA2 knockout | colony formation | – | 0.778 nM |
| O=C1NCCc2[nH]c(-c3ccncc3)cc21 | 786-0 renal | cell growth, MTS | – | 9300 nM |
| CC(=O)C1=C(C)Nc2sc(C(=O)c3ccc(Cl)c(Cl)c3)c(N)c2C1c1cccnc1 (stereo not drawn) | BV-2 | cell count, high-content imaging | geometric mean | 17500 nM |
| CCN(Cc1ccccn1)c1ccc(CO)c(Cl)c1 | RBE | cell viability, CellTiter-Glo | – | 430 nM |
| Clc1ccc(COc2cncc(-c3cnn(C4CCNCC4)c3)c2)c(Cl)c1 | BV-2 | cell count, high-content imaging | geometric mean | 4190 nM |
| COc1ccccc1Cn1nc(-c2ccc(CO)o2)c2ccccc21 | RBE | cell viability, CellTiter-Glo | – | 440 nM |
| Cc1cc(Nc2ncc(Cl)c(Nc3ccccc3S(=O)(=O)C(C)C)n2)c(OC(C)C)cc1C1CCNCC1 | NCI-H2228 (EML4-ALK) | cell growth | 3 days | 380 ± 140 nM |
| Cc1c(C(=O)O)ccc2c3n(nc12)[C@@H]1[C@H](C3)N(CC2CC2)[C@@]2(C(=O)Nc3cc(Cl)ccc32)[C@H]1c1cccc(Cl)c1F | SW982 | cell proliferation, alamarBlue | – | 0.5 nM |
| C=Cc1c(C)c2cc3nc(c(CC(=O)O)c4[nH]c(cc5nc(cc1[nH]2)C(C)=C5CC)c(C)c4C(=O)O)[C@@H](CCC(=O)O)[C@@H]3C | 4T1 | cell viability, MTT | 72 h, with: laser irradiation | 2.65 µg/mL |
| O=C(CCCC[C@H]1SC[C@H]2NC(=O)N[C@H]21)NCCOCCOCCOc1cccc(Cn2nc(-c3ccc(CO)o3)c3ccccc32)c1 | RBE | cell viability, CellTiter-Glo | – | 4460 nM |
| COc1c(Cl)cccc1Nc1c(-c2ccncc2OC[C@@H]2COCCO2)[nH]c2c1C(=O)NCC2 | Ba/F3 expressing HER2 S335C | cell growth, inhibitor, CellTiter-Glo | – | 5.9 nM |
| OCc1ccc(-c2nn(Cc3cccnc3)c3cccnc23)o1 | RBE | cell viability, CellTiter-Glo | – | 4920 nM |
| CC(C)NCC(O)c1ccc(NS(C)(=O)=O)cc1 (stereo not drawn) | hiPSC-derived cardiomyocytes | beat period change, field potential recording | 30 min, decoupled electrode condition | 270 nM |
| C#Cc1cccc(Nc2ncnc3cc(OCCOC)c(OCCOC)cc23)c1 | F98 rat cells | – | 24 h | > 100000 nM |
| OCc1ccc(N(Cc2ccc(F)cc2)C2CCC2)cc1Cl | RBE | cell viability, CellTiter-Glo | – | 740 nM |
| C=CC(=O)N1CCC[C@@H](n2nc(-c3ccc(Oc4ccccc4)cc3)c3c(N)ncnc32)C1 | Rec1 | calcium flux | with: anti-IgM | 1.7 nM |
| Cc1nc(Nc2ncc(C(=O)Nc3c(C)cccc3Cl)s2)cc(N2CCN(CCO)CC2)n1 | CFPAC | cell viability, MTT | mutant KRAS liver metastasis | 3580 nM |

Repeated from above:
| Compound | cell line | assay | conditions | IC50 |
| --- | --- | --- | --- | --- |
| C[C@H](Nc1ccc2c(c1)OCCn1cc(N3C(=O)OC[C@H]3C(F)F)nc1-2)C(N)=O | MFE-280 | growth rate inhibition, CellTiter-Glo | 120 h | 16.7 nM |
| C=Cc1c(C)c2cc3nc(c(CC(=O)O)c4[nH]c(cc5nc(cc1[nH]2)C(C)=C5CC)c(C)c4C(=O)O)[C@@H](CCC(=O)O)[C@@H]3C | 4T1 | cell viability, MTT | 72 h, with: laser irradiation | 2.65 µg/mL |
| OCc1ccc(-c2nn(Cc3ccccn3)c3ccccc23)o1 | RBE | cell viability, CellTiter-Glo | – | 290 nM |
| OCc1ccc(N(Cc2ccc(F)cc2)C2CCC2)cc1Cl | RBE | cell viability, CellTiter-Glo | – | 740 nM |
